Assay results collected from several papers.
Lines come from different studies, so protocols differ. Numbers after ± are the reported error.
Nuclear receptor subfamily 2 group C member 2 ligand-binding domain: Nuclear receptor subfamily 2 group C member 2, ligand-binding domain (Homo sapiens, UniProt P49116)
Sequence of UniProt P49116 (whole entry, looked up): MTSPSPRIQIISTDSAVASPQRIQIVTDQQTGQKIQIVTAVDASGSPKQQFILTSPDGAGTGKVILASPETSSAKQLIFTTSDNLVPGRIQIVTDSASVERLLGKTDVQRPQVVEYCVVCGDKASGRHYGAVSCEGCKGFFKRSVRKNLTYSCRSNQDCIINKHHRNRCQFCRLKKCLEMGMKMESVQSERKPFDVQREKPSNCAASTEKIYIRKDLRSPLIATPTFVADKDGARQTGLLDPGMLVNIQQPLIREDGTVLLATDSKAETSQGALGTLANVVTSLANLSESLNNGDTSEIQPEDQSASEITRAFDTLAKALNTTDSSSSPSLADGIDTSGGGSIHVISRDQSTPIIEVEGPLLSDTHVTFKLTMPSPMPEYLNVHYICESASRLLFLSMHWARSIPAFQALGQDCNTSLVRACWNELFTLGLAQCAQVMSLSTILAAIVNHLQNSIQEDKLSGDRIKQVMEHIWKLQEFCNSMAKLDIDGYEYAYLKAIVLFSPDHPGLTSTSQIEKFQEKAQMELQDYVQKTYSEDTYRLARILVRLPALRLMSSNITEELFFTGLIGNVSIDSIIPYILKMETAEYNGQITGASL

`CCn1cc(-c2cc(Cn3ccnc3)cc3c2CCN([C@H](c2cc(OC)ccn2)C2CC2)C3=O)c(C(F)(F)F)n1` gave an EC50 of 3480 nM (TE-11; cell growth, inhibitor; 120 h).
With `COc1cc2ncnc(Nc3ccc(Oc4ccccc4)cc3C)c2cc1OC` the viability was 60.3% (COLO 205 (BRAF V600E); resazurin; 3 µM, 72 h, together with: trametinib 0 nM).
`CC(C)C[C@H](NC(=O)C[C@H](O)[C@H](CC(C)C)NC(=O)[C@H](Cc1c[nH]cn1)NC(=O)CNC(=O)[C@@H](NC(=O)[C@H](C)NC(=O)[C@H](Cc1c[nH]c2ccccc12)NC(=O)[C@H](CCC(N)=O)NC(=O)[C@@H](Cc1ccccc1)NC(=O)COCCOCCNC(=O)CCC(C(=O)O)N1CCN(CC(=O)O)CCN(CC(=O)O)CCN(CC(=O)O)CC1)C(C)C)C(N)=O` (stereo partly shown) [lutetium-177 labelled] gave a tissue uptake of 4 ± 1 %ID/g (female BALB/c nu/nu mice, tumor; intravenous, 50 pmol, 24 h).
With `O=C(/C=C/C=C/C=C/C1CCCCC1)NC1=C[C@@](O)(/C=C/C=C/C=C/C(=O)NC2=C(O)CCC2=O)[C@@H]2O[C@@H]2C1=O` the GI50 was 14800 nM (NCI-H292; cell growth, CellTiter-Glo; 78 h).
With `CS(=O)(=O)Nc1ccc([N+](=O)[O-])cc1Oc1ccccc1` the Kd was 0.968 nM (Nuclear receptor subfamily 2 group C member 2 ligand-binding domain; binding).
For `COc1cc2c(cc1-c1c(C)noc1C)ncc1[nH]c(=O)n([C@H](C)c3ccccn3)c12`, the viability was 130% (OCI-Ly1; 0.1 µM, 120 h).
`COc1cnc2cccc(N3CCc4c(cc(Cn5ccnc5C)cc4-c4cn(C)nc4C(F)(F)F)C3=O)c2c1` gave an EC50 of over 30000 nM (SNU1196; cell growth; 120 h).
With `Cc1cccc(-c2[nH]c(CNc3ccccc3F)nc2-c2ccc3ncnn3c2)n1` the viability was 51% (MM1.S; XTT; 1.4 µM; reference: untreated).
For `Cn1cc(-c2ccc(-c3cncc(Cl)c3N3CCC4(CCNC4=O)CC3)cc2)cn1`, “log2 fold change” read 2.17 (COLO 205; gene expression, microarray, refers to: PLOD1 mRNA; concentration not given, 6 h; reference: untreated cells).
For `Nc1ncnc2c1ncn2[C@@H]1C=C(CO)[C@@H](O)[C@H]1O`, the viability was 3.1% (OCI-Ly1; 1 µM, 120 h).
The Kd of `NCCCCCC(=O)O` is reported as 3.73 nM (Nuclear receptor subfamily 2 group C member 2 ligand-binding domain; SPR imaging).
`CCn1cc(-c2cc(Cn3ccoc3=N)cc3c2CCN([C@@H](C)c2cc(OC)ccn2)C3=O)c(C(F)(F)F)n1` gave an EC50 of 457 nM (KG-1; cell growth, inhibitor; 120 h).
`COc1cc2c(NC3CCN(C(C)C)CC3)nc(N3CCC(F)(F)CC3)nc2cc1OCCCN1CCCC1` gave a viability of 118% (OCI-Ly1; 0.1 µM, 120 h).

Repeated from above:
For `Cn1cc(-c2ccc(-c3cncc(Cl)c3N3CCC4(CCNC4=O)CC3)cc2)cn1`, “log2 fold change” read 2.17 (COLO 205; gene expression, microarray, refers to: PLOD1 mRNA; concentration not given, 6 h; reference: untreated cells).
